Experimental data from different studies.
Protocols differ between the studies behind these lines. ± marks the error that the study gave.
ACHE: Acetylcholinesterase (ACHE, Homo sapiens, UniProt P22303)
OPRM1: Mu-type opioid receptor (OPRM1, Homo sapiens, UniProt P35372)

Amino acid sequences for entries named in this document (tags omitted). Residues count along the entry.
UniProt P22303, whole entry, looked up: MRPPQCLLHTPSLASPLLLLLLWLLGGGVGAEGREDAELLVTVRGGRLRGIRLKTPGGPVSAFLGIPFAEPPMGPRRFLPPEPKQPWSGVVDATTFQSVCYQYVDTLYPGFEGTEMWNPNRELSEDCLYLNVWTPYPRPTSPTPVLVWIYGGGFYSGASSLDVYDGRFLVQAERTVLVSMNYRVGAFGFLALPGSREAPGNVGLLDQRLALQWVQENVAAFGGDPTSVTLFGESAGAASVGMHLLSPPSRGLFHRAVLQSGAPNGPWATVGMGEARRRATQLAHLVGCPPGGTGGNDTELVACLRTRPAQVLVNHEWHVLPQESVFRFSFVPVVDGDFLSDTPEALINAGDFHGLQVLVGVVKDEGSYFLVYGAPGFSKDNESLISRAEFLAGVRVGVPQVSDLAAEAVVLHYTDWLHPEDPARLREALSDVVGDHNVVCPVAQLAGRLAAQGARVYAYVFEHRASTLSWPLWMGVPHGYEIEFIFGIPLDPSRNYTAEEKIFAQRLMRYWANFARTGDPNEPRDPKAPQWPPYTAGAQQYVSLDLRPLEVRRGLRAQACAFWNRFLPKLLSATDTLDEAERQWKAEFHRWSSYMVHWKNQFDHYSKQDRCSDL
UniProt P35372, whole entry: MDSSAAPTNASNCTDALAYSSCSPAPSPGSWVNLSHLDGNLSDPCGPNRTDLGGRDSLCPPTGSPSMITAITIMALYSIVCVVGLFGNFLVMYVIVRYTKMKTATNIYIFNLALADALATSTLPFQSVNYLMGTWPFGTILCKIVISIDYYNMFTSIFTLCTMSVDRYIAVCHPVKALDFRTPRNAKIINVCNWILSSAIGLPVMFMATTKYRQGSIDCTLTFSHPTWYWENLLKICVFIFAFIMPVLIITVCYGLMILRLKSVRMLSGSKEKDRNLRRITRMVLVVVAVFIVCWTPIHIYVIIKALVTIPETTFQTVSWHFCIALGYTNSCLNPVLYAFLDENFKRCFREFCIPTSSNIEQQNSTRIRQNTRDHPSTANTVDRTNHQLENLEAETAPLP
UniProt Q93009, whole entry: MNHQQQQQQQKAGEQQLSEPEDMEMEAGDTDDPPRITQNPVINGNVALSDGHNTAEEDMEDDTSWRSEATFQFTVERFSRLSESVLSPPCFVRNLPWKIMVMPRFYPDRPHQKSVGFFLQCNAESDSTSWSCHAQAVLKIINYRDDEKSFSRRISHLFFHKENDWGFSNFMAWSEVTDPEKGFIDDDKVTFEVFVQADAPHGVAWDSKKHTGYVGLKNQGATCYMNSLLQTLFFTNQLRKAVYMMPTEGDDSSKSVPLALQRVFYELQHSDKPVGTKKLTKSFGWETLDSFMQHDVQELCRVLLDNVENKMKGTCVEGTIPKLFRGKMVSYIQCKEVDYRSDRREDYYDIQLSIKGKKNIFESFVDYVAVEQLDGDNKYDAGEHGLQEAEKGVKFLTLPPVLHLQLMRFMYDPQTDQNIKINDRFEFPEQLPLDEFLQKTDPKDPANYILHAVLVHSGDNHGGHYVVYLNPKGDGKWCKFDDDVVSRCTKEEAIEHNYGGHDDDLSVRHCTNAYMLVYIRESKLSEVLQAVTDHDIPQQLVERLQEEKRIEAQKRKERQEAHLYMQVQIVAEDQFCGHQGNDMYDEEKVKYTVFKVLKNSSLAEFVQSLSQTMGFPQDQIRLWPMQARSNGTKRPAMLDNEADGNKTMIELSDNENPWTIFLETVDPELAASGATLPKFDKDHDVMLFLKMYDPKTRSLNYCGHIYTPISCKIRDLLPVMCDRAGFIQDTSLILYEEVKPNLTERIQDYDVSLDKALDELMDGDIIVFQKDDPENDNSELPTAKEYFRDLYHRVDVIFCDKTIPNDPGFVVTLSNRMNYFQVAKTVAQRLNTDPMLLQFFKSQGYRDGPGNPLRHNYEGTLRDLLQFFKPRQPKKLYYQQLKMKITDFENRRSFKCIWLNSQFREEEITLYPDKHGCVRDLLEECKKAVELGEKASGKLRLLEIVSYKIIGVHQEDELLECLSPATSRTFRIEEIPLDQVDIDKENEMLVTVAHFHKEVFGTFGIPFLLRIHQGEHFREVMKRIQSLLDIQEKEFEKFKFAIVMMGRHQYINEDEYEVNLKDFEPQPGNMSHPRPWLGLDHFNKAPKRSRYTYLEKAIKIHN
UniProt P35462, whole entry: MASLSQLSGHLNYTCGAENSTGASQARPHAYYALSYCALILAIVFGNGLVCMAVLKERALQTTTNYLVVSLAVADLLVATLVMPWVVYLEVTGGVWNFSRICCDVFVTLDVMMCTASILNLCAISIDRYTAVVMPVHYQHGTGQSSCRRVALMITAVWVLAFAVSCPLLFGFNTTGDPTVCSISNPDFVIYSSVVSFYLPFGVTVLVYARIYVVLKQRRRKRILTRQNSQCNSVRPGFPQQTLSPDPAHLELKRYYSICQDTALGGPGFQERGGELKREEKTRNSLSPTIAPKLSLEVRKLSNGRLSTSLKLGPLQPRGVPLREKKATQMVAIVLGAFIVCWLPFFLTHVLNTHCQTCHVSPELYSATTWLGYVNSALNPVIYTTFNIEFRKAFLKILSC
UniProt P08912, whole entry: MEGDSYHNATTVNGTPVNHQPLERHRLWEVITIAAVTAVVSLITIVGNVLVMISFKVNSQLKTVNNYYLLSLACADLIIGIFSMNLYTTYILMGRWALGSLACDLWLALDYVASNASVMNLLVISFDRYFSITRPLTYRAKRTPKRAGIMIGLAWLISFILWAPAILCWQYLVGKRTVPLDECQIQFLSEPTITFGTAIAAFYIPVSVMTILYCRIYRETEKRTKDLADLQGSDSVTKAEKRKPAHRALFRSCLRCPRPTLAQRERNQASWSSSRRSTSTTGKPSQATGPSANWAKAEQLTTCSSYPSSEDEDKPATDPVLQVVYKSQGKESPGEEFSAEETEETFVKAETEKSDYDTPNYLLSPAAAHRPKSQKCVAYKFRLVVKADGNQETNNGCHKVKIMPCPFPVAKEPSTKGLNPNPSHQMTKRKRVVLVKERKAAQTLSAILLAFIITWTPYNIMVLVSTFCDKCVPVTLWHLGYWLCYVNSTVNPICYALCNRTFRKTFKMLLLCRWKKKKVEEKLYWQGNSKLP
UniProt Q05941, 23-502 limits assumed: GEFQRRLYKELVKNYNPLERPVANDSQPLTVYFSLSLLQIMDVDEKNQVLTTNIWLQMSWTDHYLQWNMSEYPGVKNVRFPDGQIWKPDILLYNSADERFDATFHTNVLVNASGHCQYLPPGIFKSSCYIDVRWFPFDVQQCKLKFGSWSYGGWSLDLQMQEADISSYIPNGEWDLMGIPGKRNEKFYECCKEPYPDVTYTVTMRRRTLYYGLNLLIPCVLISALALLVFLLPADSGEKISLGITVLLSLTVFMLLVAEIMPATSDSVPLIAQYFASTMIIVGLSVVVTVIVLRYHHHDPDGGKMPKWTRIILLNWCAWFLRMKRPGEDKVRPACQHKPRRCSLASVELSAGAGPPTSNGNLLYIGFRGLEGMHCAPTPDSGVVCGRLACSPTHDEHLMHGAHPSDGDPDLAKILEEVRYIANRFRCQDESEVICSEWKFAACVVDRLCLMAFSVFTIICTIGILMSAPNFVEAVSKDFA
UniProt G4NFI3, 1-514: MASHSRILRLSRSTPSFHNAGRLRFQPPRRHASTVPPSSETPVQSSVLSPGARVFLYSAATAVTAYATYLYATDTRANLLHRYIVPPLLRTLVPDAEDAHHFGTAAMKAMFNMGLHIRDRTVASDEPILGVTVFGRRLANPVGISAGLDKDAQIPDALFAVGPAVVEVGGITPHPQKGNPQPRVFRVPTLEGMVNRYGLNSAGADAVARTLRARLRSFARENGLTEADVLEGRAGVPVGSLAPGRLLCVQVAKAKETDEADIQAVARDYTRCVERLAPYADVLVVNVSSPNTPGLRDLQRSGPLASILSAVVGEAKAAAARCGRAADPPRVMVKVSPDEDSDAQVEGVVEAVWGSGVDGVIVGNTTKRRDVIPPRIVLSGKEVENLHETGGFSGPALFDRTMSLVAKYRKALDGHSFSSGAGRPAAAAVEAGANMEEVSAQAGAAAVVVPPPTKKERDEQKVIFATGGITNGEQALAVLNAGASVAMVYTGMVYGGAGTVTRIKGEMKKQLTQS
UniProt Q06418, whole entry, looked up: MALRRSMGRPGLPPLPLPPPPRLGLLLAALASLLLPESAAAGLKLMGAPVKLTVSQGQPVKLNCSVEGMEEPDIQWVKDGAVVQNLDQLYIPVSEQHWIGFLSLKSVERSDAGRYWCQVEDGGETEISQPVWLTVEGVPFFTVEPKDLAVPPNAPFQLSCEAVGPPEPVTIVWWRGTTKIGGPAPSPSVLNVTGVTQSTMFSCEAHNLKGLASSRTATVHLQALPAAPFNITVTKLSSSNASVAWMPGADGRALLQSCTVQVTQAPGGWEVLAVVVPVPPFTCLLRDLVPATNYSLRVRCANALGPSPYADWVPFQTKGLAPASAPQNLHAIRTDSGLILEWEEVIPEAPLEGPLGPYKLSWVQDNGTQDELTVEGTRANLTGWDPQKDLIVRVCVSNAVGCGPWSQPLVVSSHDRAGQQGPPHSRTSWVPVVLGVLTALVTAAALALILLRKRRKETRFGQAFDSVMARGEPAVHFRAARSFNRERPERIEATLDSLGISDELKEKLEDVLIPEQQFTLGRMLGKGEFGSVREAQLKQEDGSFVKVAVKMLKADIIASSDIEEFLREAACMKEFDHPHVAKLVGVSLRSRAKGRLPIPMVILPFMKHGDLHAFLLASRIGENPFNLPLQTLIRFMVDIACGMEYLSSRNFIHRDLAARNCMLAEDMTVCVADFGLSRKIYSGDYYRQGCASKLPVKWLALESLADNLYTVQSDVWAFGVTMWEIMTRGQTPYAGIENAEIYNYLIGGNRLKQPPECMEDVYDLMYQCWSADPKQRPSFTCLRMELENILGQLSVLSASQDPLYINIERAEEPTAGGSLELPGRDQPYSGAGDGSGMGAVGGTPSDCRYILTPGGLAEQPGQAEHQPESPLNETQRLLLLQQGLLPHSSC

SMILES	target	assay	test system	setting	how to read	measurement	result
CCn1ccc(-c2cc(-c3cnn(C)c3)cc([C@@H](C)NC(=O)c3cc(OCCN(C)C)ccc3C)c2)n1	USP7 (Homo sapiens, UniProt Q93009)	enzyme activity	–	up to 40 µM, together with: Ub-AMC substrate	–	inhibition	no inhibition
CCN(CC)Cc1cc(O)ccc1N	ACHE	enzyme activity, inhibitor	–	1000 µM	–	inhibition	1%
CC(C)[C@H]1CC[C@@H](N2CCC(n3c(CO)cc4ccccc43)CC2)CC1	DRD3 (Homo sapiens, UniProt P35462)	radioligand binding	–	10 µM	–	inhibition	100%
CSCC[C@@H]1NC(=O)[C@H](CC(C)C)NC(=O)[C@H](CCCNC(=N)N)NC(=O)[C@H](CO)NC(=O)[C@@H]2CSSC[C@@H]3NC(=O)[C@H](CO)NC(=O)CNC(=O)[C@H]([C@@H](C)O)NC(=O)[C@H](CSSC[C@H](N)C(=O)N[C@@H](CCCCN)C(=O)NCC(=O)N[C@@H](CCCCN)C(=O)NCC(=O)N[C@@H](C)C(=O)N[C@@H](CCCCN)C(=O)N2)NC(=O)[C@H](CSSC[C@@H](C(N)=O)NC(=O)[C@H](CCCCN)NC(=O)CNC(=O)[C@H](CO)NC(=O)[C@H](CCCNC(=N)N)NC3=O)NC(=O)[C@H](CC(=O)O)NC(=O)[C@H](Cc2ccc(O)cc2)NC1=O	Voltage-dependent P/Q-type calcium channel subunit alpha-1A (Homo sapiens, UniProt O00555)	antagonist	HEK293	30 µM	–	inhibition	60%
CCCN1CCN(c2ccc3c(c2)C2CC3CCN2C(=O)OCc2ccccc2)CC1 (stereo not shown)	CHRM5 (Homo sapiens, UniProt P08912)	binding, radioligand binding	–	–	–	Ki	1400 nM
CCN1CCN(Cc2ccc(NC(=O)c3ccc(C)c(/C=C/c4cnc5[nH]ccc5c4OC)c3)cc2C(F)(F)F)CC1	CCDC6-RET fusion	kinase-CDC37 interaction, inhibitor	human cells	5 µM	baseline: vehicle	log2 fold change	-0.391
CC(Cc1ccccc1)NCCn1cnc2c1c(=O)n(C)c(=O)n2C (stereo not shown)	OPRM1	radioligand binding	–	10 µM	–	inhibition	7%
CCN(CC)Cc1cccc(N)c1	ACHE	enzyme activity, inhibitor	–	1000 µM	–	inhibition	0%
CN(CC1CCN(Cc2ccccc2)CC1)C(=O)c1cn(Cc2ccccc2Cl)nn1	Chrna7 (Rattus norvegicus, UniProt Q05941)	binding	rat brain membranes	10 µM, together with: radiolabelled α-bungarotoxin	–	inhibition	79.7 ± 1.9%
CC(C)CC(C)c1sccc1NC(=O)c1cn(C)nc1C(F)(F)F (stereo not shown)	Dihydroorotate dehydrogenase (quinone) (Pyricularia oryzae, UniProt G4NFI3, M402V)	enzyme activity	–	up to 10 µM	–	inhibition	no inhibition
Cc1ncc(-c2cc(Cl)ccc2F)cc1-n1c(=O)n(CC(N)=O)c2ccccc21	OPRM1	binding, radioligand binding	–	10 µM	–	inhibition	47.4%
CCN(CC)Cc1cc(N(C)C)ccc1O	ACHE	enzyme activity, inhibitor	–	1000 µM	–	inhibition	0%
CC#C/C(=N\OC[C@H]1COCCN1)c1ccc2ncnc(Nc3ccc(OCc4cccc(F)c4)c(Cl)c3)c2c1	TYRO3 (Homo sapiens, UniProt Q06418)	kinase activity	–	10 µM	–	inhibition	42.8%

Some of these lines once more:
SMILES	target	assay	test system	setting	how to read	measurement	result
CSCC[C@@H]1NC(=O)[C@H](CC(C)C)NC(=O)[C@H](CCCNC(=N)N)NC(=O)[C@H](CO)NC(=O)[C@@H]2CSSC[C@@H]3NC(=O)[C@H](CO)NC(=O)CNC(=O)[C@H]([C@@H](C)O)NC(=O)[C@H](CSSC[C@H](N)C(=O)N[C@@H](CCCCN)C(=O)NCC(=O)N[C@@H](CCCCN)C(=O)NCC(=O)N[C@@H](C)C(=O)N[C@@H](CCCCN)C(=O)N2)NC(=O)[C@H](CSSC[C@@H](C(N)=O)NC(=O)[C@H](CCCCN)NC(=O)CNC(=O)[C@H](CO)NC(=O)[C@H](CCCNC(=N)N)NC3=O)NC(=O)[C@H](CC(=O)O)NC(=O)[C@H](Cc2ccc(O)cc2)NC1=O	Voltage-dependent P/Q-type calcium channel subunit alpha-1A (Homo sapiens, UniProt O00555)	antagonist	HEK293	30 µM	–	inhibition	60%
